Results pooled from the literature.
Parts stem from different laboratories: compare values within a part only. Positions count from the first letter of the parent shown.

Series 1
Target: CCND3, cyclin fold, Cln2 fusion (human)
Method: yeast growth competition, sequencing
Matrix: yeast
Setting: weak parent motif
Reference: not given
Reading: higher = stronger binding
Endpoint: normalised enrichment score
Starting sequence: CDC25A docking peptide (human); PPHRRRLLFACSP; partner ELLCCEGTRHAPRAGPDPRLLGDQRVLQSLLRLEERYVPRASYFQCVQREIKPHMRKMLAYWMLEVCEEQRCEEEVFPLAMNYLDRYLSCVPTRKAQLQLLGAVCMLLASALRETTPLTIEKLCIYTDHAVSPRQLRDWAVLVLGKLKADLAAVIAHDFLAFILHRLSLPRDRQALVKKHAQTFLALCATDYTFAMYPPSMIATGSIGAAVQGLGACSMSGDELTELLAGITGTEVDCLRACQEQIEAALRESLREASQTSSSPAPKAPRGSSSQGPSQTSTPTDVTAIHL
PPHRRRLGFACSP [L8G]: 0.151
PPHRRRFLFACSP [L7F]: 0.148
GPHRRRLLFACSP [P1G]: 0.125
PPHRRRLLFACSD [P13D]: 0.28
PPDRRRLLFACSP [H3D]: 0.241
PPHRRRALFACSP [L7A]: 0.181
PPHRRCLLFACSP [R6C]: 0.0809
TPHRRRLLFACSP [P1T]: 0.0895
PPHERRLLFACSP [R4E]: 0.0535
PPHRRRLLQACSP [F9Q]: 0.125
PPHRERLLFACSP [R5E]: 0.0933
PPHRARLLFACSP [R5A]: 0.121
PPHRRRLLWACSP [F9W]: 0.0942
PPHRRRLLFACSL [P13L]: 0.117

Series 2
Target: Ras GTPase-activating protein-binding protein 1, RRM domain (G3BP1, Homo sapiens, UniProt Q13283)
UniProt Q13283, sequence (whole entry, looked up): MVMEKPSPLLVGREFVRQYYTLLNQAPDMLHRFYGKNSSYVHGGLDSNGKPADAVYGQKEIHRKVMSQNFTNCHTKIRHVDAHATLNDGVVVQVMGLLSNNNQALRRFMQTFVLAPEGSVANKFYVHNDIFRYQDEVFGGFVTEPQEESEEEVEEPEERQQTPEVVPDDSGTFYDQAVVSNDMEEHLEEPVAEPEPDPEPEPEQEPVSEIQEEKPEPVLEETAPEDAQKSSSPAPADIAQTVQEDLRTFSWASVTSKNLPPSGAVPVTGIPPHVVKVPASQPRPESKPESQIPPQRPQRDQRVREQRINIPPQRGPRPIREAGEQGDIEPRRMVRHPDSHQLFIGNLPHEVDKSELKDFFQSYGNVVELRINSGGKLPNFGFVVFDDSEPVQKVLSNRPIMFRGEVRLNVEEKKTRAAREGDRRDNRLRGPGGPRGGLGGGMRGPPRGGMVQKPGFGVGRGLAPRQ
Method: RNA Bind-n-Seq
Form: RNA
Matrix: in vitro
Tested at: 1 µM
Setting: whole 134-nt RNA, ends assumed
Added: 150 mM KCl
Reference: input library
Reading: higher = stronger binding
Endpoint: log2 enrichment
All sequences stand within: GGGAGUUCUACAGUCCGACGAUC … UGGAAUUCUCGGGUGUCAAGG
GUCCUGUGCUACACAUCGUAUGUACCGAAUCGGGGUUUUUGGGGUUUUUGGGUUUUUGGAAAGUAUUAUGUUACGCCGUUCGGAUCUGCA: -0.303
UGGCCCUGGUGGCAUGCGGGGAGGAAGAGGUGGCCUCAUGGAUCGUGGCGGUCCCGGUGGAAUGUUCAGAGGUGGCCGUGGUGGAGACAG: -0.0492
AGUCCUGUGCUACACAUCGUAUGUACCGAAUCGGUUUUUGGGUUUUUGGGGUUUUUGGAAAGUAUUAUGUUACGCCGUUCGGAUCUGCAC: -0.137
UGUGAGGUGGAUUUUGUUUAUUUUUUUAGCUCAUUUCCAGGGGUGGGAAUUUUUUUUUAAUAUGUGUCAUGAAUAAAGUUGUUUUUGAAA: 1.38
CCUCAAGUCCUGUGCUACACAUCGUAUGUACCGAAUCGGAGGUGGUUUUUGGAAAGUAUUAUGUUACGCCGUUCGGAUCUGCACUUCCAG: -0.252
UCAAGUCCUGUGCUACACAUCGUAUGUACCGAAUCGGAAAAAAAGGAAAGGAGGAAAGUAUUAUGUUACGCCGUUCGGAUCUGCACUUCC: -0.0761
UUAGAAGAAGUGGAAAGGAAAAAACGCCAAAGGGAGUUGGAAAUUGAAGAACGAGAACGGCGUAGAGAGGAAGAGAGAAGACUUGGCGAU: 0.2
CUCAAGUCCUGUGCUACACAUCGUAUGUACCGAAUCGGGUUGGUUGGGUUGGGAAAGUAUUAUGUUACGCCGUUCGGAUCUGCACUUCCA: 0.0182
CAAGUCCUGUGCUACACAUCGUAUGUACCGAAUCGGGUUUGGGGUUUGGGUUUGGAAAGUAUUAUGUUACGCCGUUCGGAUCUGCACUUC: -0.513
UAACUUUAGAGGAGGAUCUGAUGGAUAUGGCAGUGGACGUGGAUUUGGGGACGGCUAUAAUGGGUAUGGAGGAGGACCUGGAGGUGGCAA: -0.397
ACCAUGCAGGUGGGCCUCUUUGGGAAGUGGGGCAAGGGGGGGAUAGGGAGGGGGGUAACACUUUGGGAACAGGUGGUCCCAGGUCGUUUC: -0.384
AGUCCUGUGCUACACAUCGUAUGUACCGAAUCGGGGAGGGGAAAAAGGGGAAAGGGGAAAGUAUUAUGUUACGCCGUUCGGAUCUGCACU: 1.24
UGGAUCAAGAGGAAGUAAAAAGAAUUACCAGUCACAGGCUGACAUUCCCAUUCGGUCUCCCUUUGGUAUUGUGAAAGCAUCCUGGCUACC: -0.214
GUCCUGUGCUACACAUCGUAUGUACCGAAUCGGGAAAAAGGGAAAAAGGGAAAAAGGGGAAAGUAUUAUGUUACGCCGUUCGGAUCUGCA: 0.376

Series 3
Target: JUND, bZIP domain (human)
Method: DHFR protein complementation
Matrix: yeast
Setting: single substitutions, most at no-binding floor
Reference: wild-type JUN-FOS pair
Reading: higher = stronger binding
Endpoint: binding fitness
Starting sequence: JUN, bZIP domain (human); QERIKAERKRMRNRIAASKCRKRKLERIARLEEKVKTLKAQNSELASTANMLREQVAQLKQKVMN
V56E: -1.28 natural log
S43P: -1.51 natural log
R53L: -1.27 natural log
A49W: -1.47 natural log
Q55N: -1.25 natural log
L38Y: -1.22 natural log
N42C: -1.33 natural log
A49H: -1.34 natural log
Q55W: -1.37 natural log
E44P: -1.46 natural log
L52K: -1.47 natural log
V35G: -1.47 natural log
L52A: -1.44 natural log
L31S: -1.44 natural log
L31W: -1.34 natural log
E32D: -1.27 natural log

Series 4
Target: RING finger protein unkempt homolog, zinc fingers 1-6, GST-SBP tag (UNK, Homo sapiens, UniProt Q9C0B0, residues 30-357)
Method: RNA Bind-n-Seq
Form: RNA
Matrix: in vitro
Tested at: not given
Setting: RNA with constant flanks, human-mouse chimeric sites, ends assumed
Reference: input RNA pool
Reading: higher = stronger binding
Endpoint: bound/input enrichment
All sequences stand within: GGGAGUUCUACAGUCCGACGAUC … CAACAGAGGAUUGAGCAUCA
Target sequence (chain): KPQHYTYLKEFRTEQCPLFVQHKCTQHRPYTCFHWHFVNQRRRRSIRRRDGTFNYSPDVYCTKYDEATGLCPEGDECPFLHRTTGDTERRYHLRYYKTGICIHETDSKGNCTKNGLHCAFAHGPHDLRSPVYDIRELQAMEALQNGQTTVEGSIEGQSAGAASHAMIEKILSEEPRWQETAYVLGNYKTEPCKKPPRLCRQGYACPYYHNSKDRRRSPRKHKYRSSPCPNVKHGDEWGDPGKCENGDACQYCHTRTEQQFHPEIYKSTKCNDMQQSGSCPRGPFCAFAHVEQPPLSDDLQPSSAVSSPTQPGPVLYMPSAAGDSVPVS
UCUGGUCACACUCGUGUGUAUGGUGUUUGCUUUGUUGACACUUCACUGGGCAAGUUUUUCAUCGGCCAGUUUUCGGAUGAUCGCCAUUGUUCCAGAUUUAGGACGCUAGUGGCUCACUAU: 0.251 ratio
AAAGAGUGGAUAGAGUGUGCACACGGGAUCGGUGGGACCCGGGCGAAAAAGGAGUGCAAGAUAGAGUUCGAUGACUUCGUAGAGUGUUUGCUUCGGCACAAAACGAUGAGGCGAAUGCAU: 0.325 ratio
GGAAGUACAAUGAUGGAAAUAGAUGGCGAUAAAGGCAAGCAGGGCGGGCCCACCUACUACAUAGACACCAAUGCCCUCCGCGUGCCCAGGGAGAACAUGGAGGCCAUCUCACCACUCAAG: 0.282 ratio
UAAGUUAAGCUUUUAAUUAAGUUAUUUUCUUAACAUUUUUAUAUUGCCAUGUUUAUUUUGUUUGGGUAAUUUGGUUCAUUAAGUACAUAGCUAAGGUAAUGAACAUCUUUUUCAGUAAUU: 0.4 ratio
AAAGCCCAAGUAUUUUGAAAAAACUCGAACAGAUUUGACAAGGGUAGCCAGCUUGGAGUCUAGCAAUUUGCCAAUGUGUUUACCAAUCUGGGGGCUUUGUUUUUCUUUCUUCUUUCAAAU: 0.438 ratio
CAGCGCCGAGGCCGCGGUUUCCCCCUGGGCCUCCCCAGCAGCAGCCAUGGGCAUCAAAUUUUUAGAAGUUAUUAAACCAUUCUGUGCAGUUCUACCAGAAAUUCAGAAGCCUGAAAGGAA: 6.72 ratio
CGCUGGCCCAAGCUGAUGGACUCUGAUGGCCUCCAUCAAGGUAUUAUGUGUGCCUUCUCUUAGUCCCUGUUUUCGGGAUGUUAUGAAUCUCAGUACUGUGGUUUGAAAGCAGUUAUGUUG: 0.173 ratio
AGUGUGCAGGAAUUCAUGACCUUUACAAGUCAACUGAUUGUGGAGCGCUCAUCGAAAGGCAGCAGAGCUUCUGUCAAAGAACAAGAGUAUCUUUGCCAUGUCUACGUCCGGAGCGACAGU: 0.0824 ratio
AAAGAAAAUGGAGAAGUAAAGAUUUUACUGAAAAGUGGGAAGGAGAAACCAAAAACAAAUAUAGAAGACUUACAAAUUAAAAAGGUAAAGAAGAAAAAGAAAAAGAAACACAAAGAGAAU: 16.2 ratio
UGUGCAUAUGAUGCUUGAGAUGGUUUUUGCAAAAGCAGAAAUCGCUGCAAGGUAAUCACAAUAGAUACAAGCGGUAUUUUAAACCUUUGAAAGGAAUGGAUGUAACUGUACCUUGGUACA: 0.157 ratio
GGAUCUUUGGGACUGUUUUACUUAAUUGGUCAUUGAUAGCUUAACAAACAUGGAGAUAAGAUUAGAAAUCUUGACAUCAACAGGUAUUAAGCAGAAAAAACCCUGGCCACGUGUCUCCUG: 0.226 ratio

Series 5
Target: ABI1, truncated, D143A, DHFR fusion (Arabidopsis thaliana)
Method: DHFR PCA, deep sequencing
Matrix: yeast
Setting: methotrexate growth selection, single substitutions
Added: (+)-ABA 710 µM
Reference: wild-type fitted maximum
Reading: higher = stronger binding
Endpoint: relative binding score
Starting sequence: PYL1, truncated, DHFR fusion (Arabidopsis thaliana); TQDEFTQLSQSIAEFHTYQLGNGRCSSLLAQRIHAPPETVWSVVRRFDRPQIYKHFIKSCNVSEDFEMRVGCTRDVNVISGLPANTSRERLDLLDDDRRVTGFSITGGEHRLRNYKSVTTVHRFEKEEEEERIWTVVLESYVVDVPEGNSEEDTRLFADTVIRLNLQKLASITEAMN
G148W: 75.9%
T120L: -0.975%
P36W: 85.8%
G108M: 40.8%
E127Q: 114%
L94W: 104%
L166Y: 20%
R123N: 105%
K54T: -22.3%
M68Q: 95.5%
D48I: 33.1%
G102L: 0.418%
S104G: 59%
D48E: 94.2%
L20R: 103%
H16P: 25.7%
M176Y: 95.8%
